Literature values as cited in several papers.
Protocols differ between the studies behind these lines. ± gives the spread as reported.
B1: CCL1; sequence looked up; chain KSMQVPFSRCCFSFAEQEIPLRAILCYRNTSSICSNEGLIFKLKRGKEACALDTVGWVQRHRKMLRHCPSKRK

colistin — stability time (aqueous solution; 4 °C): 60 days
octreotide — half-life (oral, concentration not given): ~2.5 h
B1 (CCL1) — EC50 (CCR8 Q91W mutant; IP accumulation, agonist): 69 nM
semaglutide — half-life (rat): ~10 h
LASAADFG — retention coefficient S (isocratic RP-HPLC, C18 column; peptide, water/acetonitrile, 0.1% TFA; 25 °C): 14.8
[18F]AlF-NOTA-octreotide — remaining intact compound (human plasma; 1 h): 97.9 ± 1.1%
MGWWFPPKTGNAGKAKFKAAAAKWGGLFLAAAKWEANGEWGGFPKGY — MIC (Escherichia coli; peptide): 25 µM
AAEQNPIYWARYADWLFTTPLLLLDLALLVDADEGTCG — pH50 of membrane insertion (peptide, POPC membrane): ~6.1
LLSLLHFR — retention coefficient S (isocratic RP-HPLC, C18 column; peptide, water/acetonitrile, 0.1% TFA; 25 °C): 16.8
teicoplanin — half-life (healthy human subjects): 44.1 h
ivermectin — logP: 6.22
pegcetacoplan — Cmax (cynomolgus monkey; subcutaneous, 140 mg/kg/day, day 28): 4180 µg/mL
DWLKAFYDKVAEKLKEAF — surface pressure (peptide, egg PC-water interface; lipid affinity): 30 dyn/cm
SNLQLLR — retention coefficient S (isocratic RP-HPLC, C18 column; peptide, water/acetonitrile, 0.1% TFA; 25 °C): 22.3
pyridoxine — pKa (acidic): 5
KDMDKVETFLR — retention coefficient S (isocratic RP-HPLC, C18 column; peptide, water/acetonitrile, 0.1% TFA; 25 °C): 16.8
RQIKIWFQNRKWKWKK — MIC (Staphylococcus aureus; peptide): 250 µg/mL
DLEEGIQTLMGR — retention coefficient S (isocratic RP-HPLC, C18 column; peptide, water/acetonitrile, 0.1% TFA; 25 °C): 22.7
coproporphyrin I — basal serum level (healthy volunteers; median): 0.7 nM

A few entries again:
teicoplanin — half-life (healthy human subjects): 44.1 h
ivermectin — logP: 6.22
